Measurements collected from several papers.
Each numbered part is a random draw from the data of one study; scales do not carry over between parts.

Series 1
Target: Sal-like protein 4, full length isoform A (SALL4, Homo sapiens, UniProt Q9UJQ4, residues 1-1053)
UniProt Q9UJQ4, sequence (whole entry, looked up): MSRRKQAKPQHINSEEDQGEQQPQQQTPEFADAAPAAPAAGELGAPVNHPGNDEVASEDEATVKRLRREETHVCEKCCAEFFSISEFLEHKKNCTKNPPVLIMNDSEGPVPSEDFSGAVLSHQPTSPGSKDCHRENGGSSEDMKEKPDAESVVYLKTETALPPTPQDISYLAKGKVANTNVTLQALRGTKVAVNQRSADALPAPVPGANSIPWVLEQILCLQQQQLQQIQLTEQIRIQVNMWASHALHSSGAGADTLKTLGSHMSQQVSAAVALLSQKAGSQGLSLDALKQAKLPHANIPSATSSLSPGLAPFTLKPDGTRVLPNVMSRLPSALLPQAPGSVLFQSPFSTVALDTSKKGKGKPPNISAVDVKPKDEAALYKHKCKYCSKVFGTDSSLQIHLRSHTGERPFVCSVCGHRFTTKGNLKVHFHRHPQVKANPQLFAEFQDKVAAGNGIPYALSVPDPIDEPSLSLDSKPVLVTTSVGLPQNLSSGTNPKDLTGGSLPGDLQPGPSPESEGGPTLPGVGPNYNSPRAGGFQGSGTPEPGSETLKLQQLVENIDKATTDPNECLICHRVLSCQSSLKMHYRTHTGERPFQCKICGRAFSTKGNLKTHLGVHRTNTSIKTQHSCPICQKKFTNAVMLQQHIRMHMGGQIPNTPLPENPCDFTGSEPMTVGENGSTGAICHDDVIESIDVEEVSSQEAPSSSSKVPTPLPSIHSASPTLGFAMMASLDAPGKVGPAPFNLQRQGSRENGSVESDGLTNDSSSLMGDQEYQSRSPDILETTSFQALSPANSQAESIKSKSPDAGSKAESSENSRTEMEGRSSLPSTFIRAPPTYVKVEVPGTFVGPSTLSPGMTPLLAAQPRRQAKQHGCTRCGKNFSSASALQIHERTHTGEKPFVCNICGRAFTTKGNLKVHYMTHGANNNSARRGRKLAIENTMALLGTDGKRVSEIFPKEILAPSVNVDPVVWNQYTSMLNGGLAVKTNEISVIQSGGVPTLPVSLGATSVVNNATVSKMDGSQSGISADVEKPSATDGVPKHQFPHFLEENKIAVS
Method: universal PBM
Form: double-stranded DNA, one strand shown
Medium: in vitro
Concentration: 600 nM
Setting: 8-mer, flanks averaged, mean of replicates
Reading: higher = stronger binding
Quantity: E-score
ACGCTCTG: -0.193
GAAATTTA: 0.312
AAAGAGGT: 0.107
CACCGGAC: -0.377
GGCCTGGA: -0.336
CCGGTGGA: -0.229
AAATAGTA: 0.325

Series 2
Target: Interferon regulatory factor 7, full length, phosphomimetic (IRF7, Homo sapiens, UniProt Q92985, residues 1-503, S471D/S472D/S475D/S476D/S477D/S483D/S484D/S487D)
UniProt Q92985, sequence (whole entry, unmodified, looked up): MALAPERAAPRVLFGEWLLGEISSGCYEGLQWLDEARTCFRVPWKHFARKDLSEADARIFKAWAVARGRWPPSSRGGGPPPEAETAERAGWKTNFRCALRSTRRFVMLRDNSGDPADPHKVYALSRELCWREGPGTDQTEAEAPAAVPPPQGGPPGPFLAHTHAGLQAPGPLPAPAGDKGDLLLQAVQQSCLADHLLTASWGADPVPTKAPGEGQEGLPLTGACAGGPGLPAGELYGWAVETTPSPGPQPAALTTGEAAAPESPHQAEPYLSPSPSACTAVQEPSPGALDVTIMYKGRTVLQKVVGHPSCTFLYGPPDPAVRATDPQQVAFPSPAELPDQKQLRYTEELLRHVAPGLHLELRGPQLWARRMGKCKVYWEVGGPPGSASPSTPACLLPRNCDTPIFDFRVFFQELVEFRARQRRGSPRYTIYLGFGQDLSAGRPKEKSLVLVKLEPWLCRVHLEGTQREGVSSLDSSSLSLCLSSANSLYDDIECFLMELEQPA
Method: protein-binding microarray
Form: double-stranded DNA, one strand shown
Medium: in vitro
Concentration: 2200 nM top
Setting: 60-bp whole probe
Together with: salmon DNA 0.4 mg/ml
Baseline: random background probes
Reading: higher = stronger binding
Quantity: fitted relative affinity
Shared flanks, not repeated: GCCTAGCAC … GTCTTGATTCGCTTGACGCTGCTG
GGCAAAAACATGAACAGACAGTGCTAG: -1.24 z-score
GACGGTATCGGTAACGGGACGTGCTAG: -0.142 z-score
GGCGGTATCGGGTATCGGGACGTGCTA: -0.852 z-score
TCACTTTTCACTTTACAACTGTGCTAG: 5.8 z-score
TTAGGTATCGACTATCGGTTCGTGCTA: 1.11 z-score
GCCGGACTGGACTATCGGGACGTGCTA: -0.981 z-score
GACGGTATCGGACTGGGGAAGTGCTAG: -0.343 z-score

Series 3
Target: PABPC1L2, full length, GST fusion (mouse, UniProt A0ABA7IW68)
Method: RNAcompete
Form: RNA
Medium: in vitro
Concentration: 20 nM
Setting: 7-mer, probes averaged, single round
Baseline: mean of 7-mers
Reading: higher = stronger binding
Quantity: 7-mer Z-score
Residues (chain): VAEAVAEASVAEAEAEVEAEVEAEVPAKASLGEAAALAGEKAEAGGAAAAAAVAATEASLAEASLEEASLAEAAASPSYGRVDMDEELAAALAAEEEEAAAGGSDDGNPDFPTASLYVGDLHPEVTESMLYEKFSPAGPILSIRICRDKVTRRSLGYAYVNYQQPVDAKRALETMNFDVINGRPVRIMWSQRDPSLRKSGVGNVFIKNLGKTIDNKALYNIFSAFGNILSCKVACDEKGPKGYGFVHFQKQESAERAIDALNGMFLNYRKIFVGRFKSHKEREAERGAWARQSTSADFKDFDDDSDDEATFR
AAGCGAU: 0.1
AAUGAUG: 0.171
GGUACCG: -0.277
CAAGCAU: -0.137
UCAGCUA: -0.2
GGGACAA: 0.722

Series 4
Target: Histone acetyltransferase KAT6A, both winged helices, GST fusion (KAT6A, Homo sapiens, UniProt Q92794, residues 1-181)
Method: protein binding microarray
Form: double-stranded DNA, one strand shown
Medium: in vitro
Concentration: not given
Setting: 8-mer, flanks averaged, mean of 2 arrays, mostly near background
Baseline: not given
Reading: higher = stronger binding
Quantity: E-score
Residues (chain): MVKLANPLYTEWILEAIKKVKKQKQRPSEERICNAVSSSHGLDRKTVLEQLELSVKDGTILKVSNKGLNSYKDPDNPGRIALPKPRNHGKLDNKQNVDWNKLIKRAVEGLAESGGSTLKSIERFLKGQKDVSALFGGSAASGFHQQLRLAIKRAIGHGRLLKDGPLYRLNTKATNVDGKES
CGTCGAGA: -0.0843
CGGTTGGA: 0.0347
TAAGCCTA: -0.0149
GCCTCGAA: -0.0598
ATGGGAAG: -0.0601
AACATAAA: -0.194
ATGTACAG: -0.0326
GATGTCCC: 0.132
AGGATGGC: -0.00933
GGGATACA: -0.169
ATACGTAT: 0.213
GTTTTAGA: -0.163
ACACTTTG: -0.154
AGGCGAGA: -0.235
TAGAACAA: -0.131

Other studies, line by line
PhoQ, residues 284 288 289 292 302 303 TTCLQL — fold induction (PhoP, residues 12 14 15 18 19 MHTVL (Escherichia coli, UniProt P23836); Sort-seq, measured: YFP reporter; E. coli; PhoQ-PhoP variant library, together with: 10 µM Mg2+; baseline: high Mg2+ state, higher = stronger signaling): 8.05

Some of these lines once more (series 2):
GACGGTATCGGTAACGGGACGTGCTAG: -0.142 z-score
GGCGGTATCGGGTATCGGGACGTGCTA: -0.852 z-score
TCACTTTTCACTTTACAACTGTGCTAG: 5.8 z-score
TTAGGTATCGACTATCGGTTCGTGCTA: 1.11 z-score
GCCGGACTGGACTATCGGGACGTGCTA: -0.981 z-score
